Measured values pooled from the literature.
A part holds a random share of what one study measured.
Sequence of UniProt O15294 (whole entry, looked up): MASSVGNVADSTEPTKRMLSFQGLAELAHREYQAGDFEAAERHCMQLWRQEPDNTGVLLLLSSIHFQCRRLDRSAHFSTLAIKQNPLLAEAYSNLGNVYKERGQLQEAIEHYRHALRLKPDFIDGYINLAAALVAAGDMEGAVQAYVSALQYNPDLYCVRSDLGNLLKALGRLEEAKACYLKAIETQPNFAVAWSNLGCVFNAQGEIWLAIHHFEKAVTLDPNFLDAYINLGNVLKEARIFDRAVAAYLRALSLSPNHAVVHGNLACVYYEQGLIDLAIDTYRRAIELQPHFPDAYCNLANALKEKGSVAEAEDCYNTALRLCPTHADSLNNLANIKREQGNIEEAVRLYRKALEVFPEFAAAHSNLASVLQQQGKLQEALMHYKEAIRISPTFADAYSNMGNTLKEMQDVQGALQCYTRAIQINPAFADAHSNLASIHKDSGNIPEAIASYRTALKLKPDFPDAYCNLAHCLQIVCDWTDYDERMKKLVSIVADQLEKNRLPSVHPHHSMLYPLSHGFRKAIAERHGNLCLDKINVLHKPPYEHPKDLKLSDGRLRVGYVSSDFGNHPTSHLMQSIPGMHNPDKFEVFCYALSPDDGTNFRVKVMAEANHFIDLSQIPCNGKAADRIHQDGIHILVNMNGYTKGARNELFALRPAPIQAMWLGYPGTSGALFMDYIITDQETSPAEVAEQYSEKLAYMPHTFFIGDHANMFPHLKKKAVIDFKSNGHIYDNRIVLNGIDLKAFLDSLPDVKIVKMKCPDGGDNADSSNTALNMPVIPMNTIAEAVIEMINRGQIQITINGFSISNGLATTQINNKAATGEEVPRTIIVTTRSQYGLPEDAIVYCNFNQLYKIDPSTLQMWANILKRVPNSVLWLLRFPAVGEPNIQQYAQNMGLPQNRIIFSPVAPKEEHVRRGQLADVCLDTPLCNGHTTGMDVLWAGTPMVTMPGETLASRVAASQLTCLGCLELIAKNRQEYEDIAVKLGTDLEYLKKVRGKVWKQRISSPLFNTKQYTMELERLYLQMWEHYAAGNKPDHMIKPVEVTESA

Sample 1
Target: Hepatocyte nuclear factor 3-beta, forkhead domain (FOXA2, Homo sapiens, UniProt Q9Y261, residues 142-269)
Technique: protein-binding microarray
Form: double-stranded DNA, one strand shown
Medium: in vitro
Concentration: not given
Setting: k-mer, scored over probes, only values ≥0.25
Direction: higher = stronger binding
Construct (chain): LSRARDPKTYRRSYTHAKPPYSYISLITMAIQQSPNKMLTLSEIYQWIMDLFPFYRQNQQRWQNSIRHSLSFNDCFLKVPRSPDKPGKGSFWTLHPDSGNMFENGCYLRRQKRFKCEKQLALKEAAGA
For `ATGATTGC`, the E-score was 0.251.
With `AAACCCAT` the E-score was 0.314.
With `AAGAACAT` the E-score was 0.254.
`AACAAATC` has an E-score of 0.315.
`TCACAACA` gave an E-score of 0.26.
The E-score of `AACATAAT` is reported as 0.369.
`AAGTTATG` gave an E-score of 0.279.
The E-score of `ACATTATG` is reported as 0.299.

Sample 2
Target: Histone acetyltransferase KAT6A, both winged helices, GST fusion (KAT6A, Homo sapiens, UniProt Q92794, residues 1-181)
Technique: protein binding microarray
Form: double-stranded DNA, one strand shown
Medium: in vitro
Concentration: not given
Setting: 8-mer, flanks averaged, mean of 2 arrays, mostly near background
Reference: not given
Direction: higher = stronger binding
Construct (chain): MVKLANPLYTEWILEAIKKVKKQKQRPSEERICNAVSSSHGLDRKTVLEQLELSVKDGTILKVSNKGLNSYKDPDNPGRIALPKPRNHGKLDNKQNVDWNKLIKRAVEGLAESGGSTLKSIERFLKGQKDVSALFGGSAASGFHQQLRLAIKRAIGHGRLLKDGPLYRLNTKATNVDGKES
`CATGGGAA` gave an E-score of 0.0135.
The E-score of `CTATAGTA` is reported as 0.0674.
With `AAACGTAC` the E-score was -0.152.
The E-score of `CTACGACC` is reported as -0.00488.
With `CTCTAACC` the E-score was -0.153.
For `ATGCTACA`, the E-score was -0.0838.
`AGAGGTGC` gave an E-score of -0.138.
`ACGAGTTA` has an E-score of -0.116.

Sample 3
Target: Runt-related transcription factor 1, full length (RUNX1, Homo sapiens, UniProt Q01196-8, residues 1-480)
Technique: protein-binding microarray
Form: hairpin DNA
Medium: in vitro
Concentration: not given
Setting: whole hairpin DNA, median over replicate spots
Reference: not given
Direction: higher = stronger binding
For `GAGGCCCAACCCCAACAGCCTCCTGGCTGTTGGGGTTGGGCCTCACACTC (5mC at 12)`, the median fluorescence was 2110 a.u.
For `GAGGCCTCGTGCGGTTGGCCTCCTGGCCAACCGCACGAGGCCTCACACTC`, the median fluorescence was 3420 a.u.
For `GAGGCCGGTTGTGGTTGGCCTCCTGGCCAACCACAACCGGCCTCACACTC`, the median fluorescence was 3650 a.u.
`CTCAGTTCTGTGGCGTGGACTCCTGTCCACGCCACAGAACTGAGACACTC` has a median fluorescence of 1970 a.u.
The median fluorescence of `GAGGCCTGTTGCGGCGGGCCTCCTGGCCCGCCGCAACAGGCCTCACACTC (5mC at 15 29)` is reported as 2320 a.u.
With `GAGGCCCGTTGTGGTTGGCCTCCTGGCCAACCACAACGGGCCTCACACTC (5mC at 37)` the median fluorescence was 3260 a.u.
`CTCAGTTCGGTGGGCTGGACTCCTGTCCAGCCCACCGAACTGAGACACTC (5mC at 8)` gave a median fluorescence of 1950 a.u.
The median fluorescence of `GAGGCCTGCGGCGGTTGGCCTCCTGGCCAACCGCCGCAGGCCTCACACTC (5mC at 35)` is reported as 2750 a.u.

Further values, each from its own experiment
`IRHPYDHFHDKPGGS`: “enrichment fold change” 9.39 (UDP-N-acetylglucosamine--peptide N-acetylglucosaminyltransferase 110 kDa subunit (OGT, Homo sapiens, UniProt O15294); binding, phage display NGS; peptide; concentration not given; reference: input library).

For quick reference, copied from above (sample 1):
`AACAAATC` has an E-score of 0.315.
`TCACAACA` gave an E-score of 0.26.
The E-score of `AACATAAT` is reported as 0.369.
